{"data": "Experimental data from different studies", "note": "Numbered parts are unrelated; each lists some results of a single study."}
{"data": "Set 1", "target": "RNA binding protein fox-1 homolog 2, RRM domain, GST-SBP tag (RBFOX2, Homo sapiens, UniProt O43251-10, residues 100-194)", "technique": "RNA Bind-n-Seq", "molecule type": "RNA", "medium": "in vitro", "tested at": "365 nM", "setting": "natural RNA segment, single round, ends assumed", "relative to": "no-protein control", "direction": "higher = stronger binding", "Residues (chain)": "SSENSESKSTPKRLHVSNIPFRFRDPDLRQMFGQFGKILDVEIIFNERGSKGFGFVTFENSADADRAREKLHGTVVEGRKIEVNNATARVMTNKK"}
{"Sequence": "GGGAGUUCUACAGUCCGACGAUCAUUUGGUUCAUAUCUUGUGUAUUGGUGCAUAAAAGAAAAAAAAACAGUGUUUUUACGUUUUCAGUUUAAAGGACAAAGGGCGUGCUCUCUCAGUUUGCUGUAAGAUUGUAUGGAAUUCUCGGGUGCCAA", "RBNS enrichment (R)": 0.384}
{"Sequence": "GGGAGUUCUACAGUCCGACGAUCUGUGUGUGUGUGUAGAGGGAUGGACAGGAUGCUGUUUAUUUUCCCUUUCUUGGAAAUGGACCUUCUGUCCCUUCCAUUUGGACACCACAGUGGAAGCUGGUGGCCUGGAAUGGAAUUCUCGGGUGCCAA", "RBNS enrichment (R)": 0.345}
{"Sequence": "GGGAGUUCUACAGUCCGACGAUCAGGUUUUUAAAAAGUAGCUCUUCCCCAACCCCGUUGCUAGCUUGUUGCAAUAUAAAAGCCCUGGUGCACCUGAAUUUACUCCUGGCCUUACUAAUGAUUCAUAAUGUGAUUGGAAUUCUCGGGUGCCAA", "RBNS enrichment (R)": 1.26}
{"Sequence": "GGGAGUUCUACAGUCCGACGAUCUUUUUUUUUAACUGUAGGGAAGCAGCCCUGACCUUACCUCUCCACUCCUGUCCCGGGAGCUCUCAAUGCUAUCCUGGAUUGCCUCGUACCAGUCAGAGGUCAGGACUCCAUGGAAUUCUCGGGUGCCAA", "RBNS enrichment (R)": 0.576}
{"Sequence": "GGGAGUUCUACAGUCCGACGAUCUCCUACACUGUAUUUUGGCGCAUGUUGGUGGCCCUCUGUGCCCUAGAUAUAUGCACACAGGGUGCAAGUUAAAAGCUACAGAGUGAAAGUUGGUUUGGAUCCUCUUCAUUUGGAAUUCUCGGGUGCCAA", "RBNS enrichment (R)": 6.85}
{"Sequence": "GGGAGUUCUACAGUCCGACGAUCGAGUGUCUUUAGCCCCUGCCCUACUUUUCCCUCUCUGACUUUUUUCCCAGGUAGCUUAGUGUUUAACAUCUCUCUCACCAUCCUGAUGCAGUAGCAUGGCUAUUGCUGAGUGGAAUUCUCGGGUGCCAA", "RBNS enrichment (R)": 1.28}
{"Sequence": "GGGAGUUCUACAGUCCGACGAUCAGUUGGCAUUUGUUAUCCUCUUGUAUACUUGUAUUCCCUUAACUCUAACCCUGUGGAAGCAUGGCUGUCUGCACAGAGGGUCCCAUUGUGCAGAAAAGCUCAGAGUAGGUUGGAAUUCUCGGGUGCCAA", "RBNS enrichment (R)": 0.519}
{"Sequence": "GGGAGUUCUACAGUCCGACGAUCGAAGAGGUUAUAAAGGGACAGAUGGUCAUAGAAACCUUUGCAGAGGCAGUUGUGCCAACCCAAGGGCUCUUUCAUUGUUCGUUGGCUUCUGUCUUUAAAGCCAAGAAAGUUGGAAUUCUCGGGUGCCAA", "RBNS enrichment (R)": 0.748}
{"data": "Set 2", "target": "Replicase polyprotein 1ab, main protease (rep, Severe acute respiratory syndrome coronavirus 2, UniProt P0DTD1)", "observed": "enzyme activity", "action": "inhibitor", "tested at": "20 µM", "setting": "hit confirmation"}
{"SMILES": "CC(=O)Oc1ccccc1C(=O)Nc1ncc([N+](=O)[O-])s1", "inhibition [%]": -13.9}
{"SMILES": "S=C=NCc1ccccc1", "inhibition [%]": 76.3}
{"SMILES": "COc1ccc2[nH]c3c(S)ncnc3c2c1", "inhibition [%]": 33.8}
{"data": "Set 3", "target": "Interferon regulatory factor 7, full length, phosphomimetic (IRF7, Homo sapiens, UniProt Q92985, residues 1-503, S471D/S472D/S475D/S476D/S477D/S483D/S484D/S487D)", "technique": "protein-binding microarray", "molecule type": "double-stranded DNA, one strand shown", "medium": "in vitro", "tested at": "2200 nM top", "setting": "60-bp whole probe", "added": "salmon DNA 0.4 mg/ml", "relative to": "random background probes", "direction": "higher = stronger binding", "constant ends, left off below": "GCCTAGCAC … GTCTTGATTCGCTTGACGCTGCTG", "Target sequence (chain)": "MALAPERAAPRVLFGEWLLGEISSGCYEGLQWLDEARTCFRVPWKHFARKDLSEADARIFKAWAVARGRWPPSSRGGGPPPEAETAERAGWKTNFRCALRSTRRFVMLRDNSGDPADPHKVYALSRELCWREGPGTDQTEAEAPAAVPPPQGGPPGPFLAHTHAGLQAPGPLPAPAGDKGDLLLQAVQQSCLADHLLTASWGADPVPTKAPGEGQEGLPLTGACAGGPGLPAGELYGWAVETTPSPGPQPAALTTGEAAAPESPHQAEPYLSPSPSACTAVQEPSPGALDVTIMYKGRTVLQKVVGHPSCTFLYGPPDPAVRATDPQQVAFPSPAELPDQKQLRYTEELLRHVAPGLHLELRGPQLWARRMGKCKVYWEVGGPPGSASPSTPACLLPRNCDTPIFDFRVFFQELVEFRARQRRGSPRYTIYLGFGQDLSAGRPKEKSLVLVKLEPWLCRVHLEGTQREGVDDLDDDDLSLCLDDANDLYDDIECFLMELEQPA"}
{"Sequence": "GGCGGACTGGGTATCGGGACGTGCTAG", "fitted relative affinity": "-1.48 z-score"}
{"Sequence": "GACGGTCACCTTATCCTGACGTGCTAG", "fitted relative affinity": "0.644 z-score"}
{"Sequence": "TCAACAATTTCAGATTCCACTGTGCTA", "fitted relative affinity": "0.917 z-score"}
{"Sequence": "TGAGGACTGCTTATCCTTTAGTGCTAG", "fitted relative affinity": "0.276 z-score"}
{"Sequence": "TTATGACTGGACTTTCGGTTAGTGCTA", "fitted relative affinity": "5.57 z-score"}
{"Sequence": "TCAGGGCTCTTCTCTGAAACTGTGCTA", "fitted relative affinity": "-0.7 z-score"}
{"Sequence": "CCGTGTTTCTCAAATGTTTTGGTGCTA", "fitted relative affinity": "2.12 z-score"}
{"Sequence": "TTAGGTTTCGTTTCCGGTTAGTGCTAG", "fitted relative affinity": "10.6 z-score"}
{"data": "Set 4", "target": "Replicase polyprotein 1ab, nsp13 helicase (rep, Severe acute respiratory syndrome coronavirus 2, UniProt P0DTD1)", "action": "inhibitor", "tested at": "20 µM"}
{"Structure (SMILES)": "Cc1cc(C(C)(C)C)c(O)c(C)c1CC1=NCCN1", "inhibition [%]": 1.32}
{"Structure (SMILES)": "CC(C)Oc1cccc(CC(=O)N2CCC[C@](CC[N+]34CCC(c5ccccc5)(CC3)CC4)(c3ccc(Cl)c(Cl)c3)C2)c1", "inhibition [%]": 8.32}
{"Structure (SMILES)": "CCC(=O)Nc1cccc(Oc2nc(Nc3ccc(N4CCN(C)CC4)cc3OC)ncc2Cl)c1", "inhibition [%]": 6.56}
{"Structure (SMILES)": "CCCCOc1ccc(CC/C=C2\\SC(=O)N(CCN)C2=O)cc1", "inhibition [%]": 43.3}
{"Structure (SMILES)": "Cc1ccc(/C=N/NC(=O)c2ccccc2Oc2ccccc2)o1", "inhibition [%]": 1.76}
{"Structure (SMILES)": "Nc1nc2c(ncn2[C@@H]2O[C@H](CO)[C@@H](O)[C@H]2O)c(=O)[nH]1", "inhibition [%]": 3.65}
{"Structure (SMILES)": "Fc1ccc(-c2nc3n(c2-c2ccncc2)CCS3)cc1", "inhibition [%]": -0.5}
{"Structure (SMILES)": "CN1CC[C@@]2(C)c3cc(OC(=O)Nc4ccccc4)ccc3N(C)[C@@H]12", "inhibition [%]": 3.66}
{"Structure (SMILES)": "O=C(NC1Cc2ccccc2N(C[C@@H](O)CO)C1=O)c1cc2cc(Cl)sc2[nH]1 (stereo partly shown)", "inhibition [%]": 10.9}
{"Structure (SMILES)": "CN(c1ccccc1CNc1nc(Nc2ccc3c(c2)CC(=O)N3)ncc1C(F)(F)F)S(C)(=O)=O", "inhibition [%]": 3.71}
{"Structure (SMILES)": "NC(=NCCC[C@H](N)C(=O)O)N[N+](=O)[O-]", "inhibition [%]": 11}
{"Structure (SMILES)": "CCCCNC(=O)NS(=O)(=O)c1ccc(C)cc1", "inhibition [%]": -2.75}
{"Structure (SMILES)": "CC(C)(C)NCC(O)CSc1nc(-c2ccc(C(N)=O)s2)cs1 (stereo not shown)", "inhibition [%]": -4.37}
{"Structure (SMILES)": "CC(C)/N=c1\\cc2n(-c3ccc(Cl)cc3)c3ccccc3nc-2cc1Nc1ccc(Cl)cc1", "inhibition [%]": 4.72}
{"Structure (SMILES)": "CC(C)n1c(/C=C/[C@@H](O)C[C@@H](O)CC(=O)O)c(-c2ccc(F)cc2)c2ccccc21 (racemic)", "inhibition [%]": 2.38}
{"Structure (SMILES)": "COc1ccc2c3c([nH]c2c1)[C@H](CC(C)C)N1C(=O)[C@H](CCC(=O)OC(C)(C)C)NC(=O)[C@@H]1C3", "inhibition [%]": 10.7}
{"Structure (SMILES)": "CC(C)Nc1nc2cc(Cl)c(Cl)cc2n1[C@H]1O[C@@H](CO)[C@H](O)[C@@H]1O", "inhibition [%]": 2.02}
{"Structure (SMILES)": "COc1ccc2c(c1)c(CC(=O)N1CCOCC1)c(C)n2C(=O)c1ccc(Cl)cc1", "inhibition [%]": 2.45}
{"Structure (SMILES)": "CC(C)NC[C@@H](C(=O)N1CCN(c2ncnc3c2[C@H](C)C[C@H]3O)CC1)c1ccc(Cl)cc1", "inhibition [%]": 3.98}
{"Structure (SMILES)": "Cc1cc(O)cc(C)c1Cl", "inhibition [%]": 4.22}
{"Structure (SMILES)": "CCOc1ccc(/N=C(\\C)Nc2ccc(OCC)cc2)cc1", "inhibition [%]": 5.67}
{"Structure (SMILES)": "CC(=O)N[C@@H](CCC(N)=O)C(=O)O", "inhibition [%]": -22.7}
{"Structure (SMILES)": "O=C(O)[C@H](Cc1ccc(Nc2nccc3ccncc23)cc1)NC1=C(Br)C(=O)C12CCCCC2", "inhibition [%]": 3.32}
{"Structure (SMILES)": "Cc1cc(-c2cc(OC(=O)c3ccccc3)ccc2Cl)cc2nnc(Nc3ccc(OCCN4CCCC4)cc3)nc12", "inhibition [%]": 4.56}
{"Structure (SMILES)": "COc1ccc2[nH]c([S+]([O-])Cc3ncc(C)c(OC)c3C)nc2n1 (stereo not shown)", "inhibition [%]": 90}
{"data": "Set 5", "target": "Sal-like protein 4, full length isoform B (SALL4, Homo sapiens, UniProt Q9UJQ4-2, residues 1-616)", "technique": "universal PBM", "molecule type": "double-stranded DNA, one strand shown", "medium": "in vitro", "tested at": "not given", "setting": "8-mer, flanks averaged, mean of replicates", "direction": "higher = stronger binding"}
{"Sequence": "AGTTTAGA", "E-score": 0.0712}
{"Sequence": "ACTCCATC", "E-score": 0.0713}
{"Sequence": "CAGTACCG", "E-score": -0.224}
{"Sequence": "CAGGGTAC", "E-score": -0.194}
{"Sequence": "CCACAACA", "E-score": -0.038}
{"Sequence": "CACCTGTA", "E-score": 0.0305}
{"Sequence": "CTAGTAAG", "E-score": 0.173}
{"Sequence": "CGTGGGCC", "E-score": -0.294}
{"data": "Set 6", "cell line": "HEK-293T", "observed": "pseudovirus infection", "organism": "VSV pseudotyped with SARS-CoV-2 spike", "tested at": "10 µM", "time": "16 h", "relative to": "vehicle-treated"}
{"SMILES": "Cc1[nH]cnc1CN1CCc2c(c3ccccc3n2C)C1=O", "GFP-positive cells [%]": 83.2}
{"SMILES": "CNC(=O)c1cc(Oc2ccc(NC(=O)Nc3ccc(Cl)c(C(F)(F)F)c3)cc2)ccn1", "GFP-positive cells [%]": 2.35}
{"SMILES": "OCCOCCN1CCN(C(c2ccccc2)c2ccc(Cl)cc2)CC1 (stereo not shown)", "GFP-positive cells [%]": 44}
{"note": "Repeated from above (set 3):"}
{"Sequence": "TTATGACTGGACTTTCGGTTAGTGCTA", "fitted relative affinity": "5.57 z-score"}
{"Sequence": "TCAGGGCTCTTCTCTGAAACTGTGCTA", "fitted relative affinity": "-0.7 z-score"}
{"Sequence": "CCGTGTTTCTCAAATGTTTTGGTGCTA", "fitted relative affinity": "2.12 z-score"}
{"Sequence": "TTAGGTTTCGTTTCCGGTTAGTGCTAG", "fitted relative affinity": "10.6 z-score"}
